# Experimental data pooled from the literature.
# A part holds a random share of what one study measured.

# Block 1
# Target: Interferon regulatory factor 5, full length, phosphomimetic (IRF5, Homo sapiens, UniProt Q13568-2, residues 1-514, K96S/S451D/S453D/S456D/S462D)
# Technique: protein-binding microarray
# Molecule type: double-stranded DNA, one strand shown
# Medium: in vitro
# Tested at: 250 nM
# Notes: 60-bp whole probe
# Added: salmon DNA 0.4 mg/ml
# Baseline: random background probes
# Direction: higher = stronger binding
# All sequences stand within: GCCTAGCAC … GTCTTGATTCGCTTGACGCTGCTG
Sequence,log fluorescence [z-score]
GACGATTTTAGTCTCGAGACGTGCTAG,0.216
TCATTTTTGCTTACGATACTGTGCTAG,1.83
TTAGATATCGGGTATCGATCAGTGCTA,4.99
TCATACCTGAATATCTTACTGTGCTAG,0.445
GTATATACACTTATGACTTTGTGCTAG,0.483
TAAGGTTTCCTACTGCTTTAGTGCTAG,0.446
TTAGGCCTGCTTATCCTTTAGTGCTAG,-0.417
GACCGTTCCGGTTTCGGGACGTGCTAG,4.81
TTAGAACTGGTGACTGGATTAGTGCTA,-0.222
TTAGGACTGCAACTGCTTTAGTGCTAG,-0.283
TCCCATTAAATTTTAATAACGTGCTAG,0.27
TCATTTTCCTAATTGAAACTGTGCTAG,1.29
GACGATATCAGATTGGAGACGTGCTAG,0.579
TTAGGTTTCGACTATCGGGTAGTGCTA,8.16
TCACTATTATATATATCACTGTGCTAG,1.51
TACGGTTTCGGGTTTCGGGACGTGCTA,8.11
GTCGAACTGAGTATCGAGACGTGCTAG,2.16

# Block 2
# Target: RNA binding protein fox-1 homolog 2, RRM domain, GST-SBP tag (RBFOX2, Homo sapiens, UniProt O43251-10, residues 100-194)
# Technique: RNA Bind-n-Seq
# Molecule type: RNA
# Medium: in vitro
# Tested at: 365 nM
# Notes: natural RNA segment, single round, ends assumed
# Baseline: no-protein control
# Direction: higher = stronger binding
# Construct (chain): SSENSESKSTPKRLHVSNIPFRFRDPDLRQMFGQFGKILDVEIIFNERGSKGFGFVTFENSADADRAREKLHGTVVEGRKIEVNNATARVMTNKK
Sequence,RBNS enrichment (R)
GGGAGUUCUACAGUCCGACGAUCGCUGCCUAUGUUUCUUUUUAAAGCUCGCAUUCCCAGAAUCAGCUUAGGCUUCUAUGAAUUCAGCCUGUUUCUAAAAGCUGAAAAUCUCAGUUUAAAAAUCAAAAUGUUAAUGGAAUUCUCGGGUGCCAA,1.09
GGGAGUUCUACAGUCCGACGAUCCCCAUUUGCUGCCUUUUUUGUUUUUGUGGGGGAAGGGUUGGGAGUAAGUUUAAACUCUUCCGAAGAUUAUGAAUGGGUCAGCACAAAUUUUUAGGCAACUGCUUUUUCCAUGGAAUUCUCGGGUGCCAA,0.433
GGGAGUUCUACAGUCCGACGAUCCAUCCUGGACCAAACAGAUAGGCCAGAACCAGCCUGCAUCCUGGGGCUGCUAUGUGGUUCAGUUAAUCAGUGUGCCAAGAUUCUAAUAAAGUUGACCUUGGGUUCUGUGAUGGAAUUCUCGGGUGCCAA,0.588
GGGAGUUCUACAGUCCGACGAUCAGCCUAUCUCCAGGUAGAAAGGAGGCUUGGCCACAUCCACAUCCUGUUGAGAGACAUAGUCUCAUUUCCCUCUCUACCUUCUAAGCUACCCUUCUUGCUAAUCCUUCUUCUGGAAUUCUCGGGUGCCAA,0.436
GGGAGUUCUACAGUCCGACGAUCAGUUCAGAGUGGGAUUUUUUUCUUUGAACCUUAAAGGUUUUAUUUUAGAACGAGGCACAGAUCGCACAUUUUCUACUUGAGGAUCUUUUUUAGUGGUGAAUACCAAGAUUUGGAAUUCUCGGGUGCCAA,2.59
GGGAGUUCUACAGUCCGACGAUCCCAGGGCAGGGCCCCAGGCAUUGCCAAGGGCUUUGUUUUGCACACUUUGCCAUAUUUUCACCAUUUGAUUAUGUAGCAAAAUACAUGACAUUUAUUUUUCAUUUAGUUUGUGGAAUUCUCGGGUGCCAA,0.292
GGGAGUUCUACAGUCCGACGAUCGAAGUCCUUUUGCCUGCCGGGGAGCAAGCAAGGCCAGGGCACGGGGGCACAUUGGCUCACUUCCAGAAACACGACAAACCCAUUCCUGGCCCUGAGUCAAGAGGACAGAGUGGAAUUCUCGGGUGCCAA,0.53
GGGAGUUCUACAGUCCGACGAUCUCUAAAAUUAAGUUUACCAAAGGCAAAUAACUGCUUACUAGGAACUUCCUUUAGCAAAAAUUACUAUAAAGUUCAGGACAGUUUGAAAUAAAACCCAGGAAACAAGAUUAUGGAAUUCUCGGGUGCCAA,0.436
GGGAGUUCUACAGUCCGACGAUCUUUAGUUUUUUCAUUUUGUUCUACUUUAUUAAAAAGGUUGGGUGUUCUAGUUCUUGGUUUCUCAUAGAUUUUUAAACUAUCUAAUUAGAGAACACUUUUGAUCCAUCACAUGGAAUUCUCGGGUGCCAA,0.521
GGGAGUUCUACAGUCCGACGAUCUUAGCAAUCUAUUGGGUCAACUGACAUCCAUUGUAUAUACUAGUUUCUUUCAUGCUAUUUUUAUUUUGUUUUUUGCAUUUUUAUCAAAUGCAGGGCCCCUUUCUGAUCUCUGGAAUUCUCGGGUGCCAA,1.29
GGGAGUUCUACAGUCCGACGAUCUGAUUAUCUGCAGUUAAGUAGAUGACAGCUAUUCUACAUCAGACUUGAUUUUUGUCAGCUAAUUACAUAAUUGGUAAGCUAUAAUUGAAACCUUAUGGCUUAAAAUUCCUUGGAAUUCUCGGGUGCCAA,0.411
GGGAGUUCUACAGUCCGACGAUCGUGGAAUCAGAAACCUGUUUUGAUAUGUGUUCUCUAUGAGUUAAGUCUGAUUUGUCUUUUUAUUUCAUGAUGCAUGUCUUUUUUUUCUUUUGUCAGGAUAACGUCAUAUAUGGAAUUCUCGGGUGCCAA,1.11

# Block 3
# Target: human cyclin A2
# Effect on: peptide binding
# Technique: competitive growth sequencing
# Molecule type: peptide
# Organism: Saccharomyces cerevisiae
# Strain: cyclin A2-Cln2 fusion strain
# Tested at: concentration not given
# Notes: peptide tiling library
# Baseline: unfused Cln2 strain
# Direction: direction not given
Sequence,binding score
HRRRLLFACSPPPASQ,1.05
YRSRIRRELFIEEIQA,1.85
EHCRVLFLDHVMYTIH,0.258
IQKKLRFEDTLEFVGF,0.977
NLEPNAEFDKRTEFIT,0.469
KVRRNLFNQELLSP,2.17
RDLFDCDFGDLTPLDF,0.0912
GPVKLEFDVSDGAT,0.21
RTSACASAFGPVDHEE,-0.376
SPREGHMMDALYAQVK,0.812
CFRCLLFSFSGRSGVE,0.683
EPKTLFLGAGDFQF,0.589
NESHLDKEHDAVEVAD,-0.159
RTEALEQGGLPKKLIF,0.685
QYQVVDDIVSKLVFDF,0.0658
LRRKLFLDGNGSIS,0.643
DVSERGYVILPNDYFE,-0.282
KPKPVKPVTFSTGIKM,-0.504
VEEEFFALRKRTPSAG,0.66
ESSTVSEEDYFSSHRD,0.287
YLYLLLTQSLWCRV,1.04
LFVPQRKLEVSTEDVH,0.273

# Block 4
# Target: PABPC1L2, full length, GST fusion (mouse, UniProt A0ABA7IW68)
# Technique: RNAcompete
# Molecule type: RNA
# Medium: in vitro
# Tested at: 20 nM
# Notes: 7-mer, probes averaged, single round
# Baseline: mean of 7-mers
# Direction: higher = stronger binding
# Target sequence (chain): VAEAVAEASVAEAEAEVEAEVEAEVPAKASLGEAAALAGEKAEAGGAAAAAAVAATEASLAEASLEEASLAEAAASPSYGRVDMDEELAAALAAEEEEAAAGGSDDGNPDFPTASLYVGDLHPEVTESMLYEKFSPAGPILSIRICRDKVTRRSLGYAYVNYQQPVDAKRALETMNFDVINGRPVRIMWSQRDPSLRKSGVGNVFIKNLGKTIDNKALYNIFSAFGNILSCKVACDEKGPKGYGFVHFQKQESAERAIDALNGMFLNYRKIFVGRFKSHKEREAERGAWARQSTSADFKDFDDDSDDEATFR
Sequence,7-mer Z-score
AGGCUGA,0.247
AUUUAAG,0.253
GGUAAUC,0.0225
ACCAUAU,-0.0627
UGUCUGG,-0.26
UCAGAGC,-0.213
CAAAUGC,0.117
GCCAUUU,-0.229
AUAACCC,-0.18
GGAGCAG,0.119
UGUGACU,-0.251
AAUCAUG,0.0841
CGCGAGA,-0.112
CUGCGCG,-0.242
CUCACAU,-0.213
AAGAACU,0.526
ACAUUAU,0.0478
AGGUCCC,-0.342
AGCAUUU,-0.151
CAGGAGA,0.224
CAGAAUG,-0.106
ACGAAUC,-0.0663
UUUGUUC,-0.49
GGACAAA,1.72
ACUUCCC,-0.391

# Block 5
# Target: Histone acetyltransferase KAT6A, winged helix 2, GST fusion (KAT6A, Homo sapiens, UniProt Q92794, residues 85-181)
# Technique: protein binding microarray
# Molecule type: double-stranded DNA, one strand shown
# Medium: in vitro
# Tested at: not given
# Notes: 8-mer, flanks averaged, mean of 2 arrays, mostly near background
# Baseline: not given
# Direction: higher = stronger binding
# Residues (chain): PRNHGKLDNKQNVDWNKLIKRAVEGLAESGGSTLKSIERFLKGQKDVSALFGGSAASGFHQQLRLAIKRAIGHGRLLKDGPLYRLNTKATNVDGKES
Sequence,E-score
CCTTGCCC,0.288
GCCCCAAC,0.0722
TAGAACCA,-0.264
GAACAGCA,0.0451
AACCACTT,-0.21
TCCGAAGA,0.245
ATGCTGAC,0.0761
AACCTTAG,-0.104
TACCGCTA,-0.192
CGACCACA,-0.0361
CACATGAG,-0.155
GCGCGGAA,0.0727
AATCCTAG,0.0261
AGACAGCA,0.00455
CGACTTTA,-0.0396
ACCGTCCA,0.0217
AACAACGG,-0.111
TCAACCAA,0.0567
